Experimental data of several laboratories.
Each line is one published result; not all experiments were run side by side. “And” joins repeats or separate records; there may be more than shown. ± gives the spread as reported.
lasR: Transcriptional activator protein LasR (lasR, Pseudomonas aeruginosa, UniProt P25084)
UniProt Q92918, sequence (whole entry, looked up): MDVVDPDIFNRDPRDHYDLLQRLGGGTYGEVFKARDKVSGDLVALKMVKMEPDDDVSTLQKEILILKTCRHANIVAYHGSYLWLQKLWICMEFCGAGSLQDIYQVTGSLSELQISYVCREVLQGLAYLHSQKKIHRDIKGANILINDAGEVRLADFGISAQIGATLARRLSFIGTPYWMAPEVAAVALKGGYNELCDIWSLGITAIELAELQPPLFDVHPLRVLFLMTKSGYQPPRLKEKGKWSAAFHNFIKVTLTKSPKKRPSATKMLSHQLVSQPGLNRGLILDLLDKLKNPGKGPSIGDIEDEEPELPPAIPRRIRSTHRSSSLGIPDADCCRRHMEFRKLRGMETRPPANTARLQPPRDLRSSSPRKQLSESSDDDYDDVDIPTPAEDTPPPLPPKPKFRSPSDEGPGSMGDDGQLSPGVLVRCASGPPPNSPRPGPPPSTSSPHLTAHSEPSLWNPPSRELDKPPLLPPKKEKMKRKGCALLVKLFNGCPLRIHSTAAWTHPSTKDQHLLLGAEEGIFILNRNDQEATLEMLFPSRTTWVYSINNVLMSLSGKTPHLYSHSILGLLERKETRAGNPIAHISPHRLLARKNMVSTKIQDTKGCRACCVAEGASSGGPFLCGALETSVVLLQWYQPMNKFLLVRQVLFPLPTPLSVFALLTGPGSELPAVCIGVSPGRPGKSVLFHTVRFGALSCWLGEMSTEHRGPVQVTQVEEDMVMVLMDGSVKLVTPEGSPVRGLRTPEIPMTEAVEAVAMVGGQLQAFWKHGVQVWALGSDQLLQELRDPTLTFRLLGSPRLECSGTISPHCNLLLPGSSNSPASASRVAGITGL
UniProt Q96GD4, sequence (whole entry, looked up): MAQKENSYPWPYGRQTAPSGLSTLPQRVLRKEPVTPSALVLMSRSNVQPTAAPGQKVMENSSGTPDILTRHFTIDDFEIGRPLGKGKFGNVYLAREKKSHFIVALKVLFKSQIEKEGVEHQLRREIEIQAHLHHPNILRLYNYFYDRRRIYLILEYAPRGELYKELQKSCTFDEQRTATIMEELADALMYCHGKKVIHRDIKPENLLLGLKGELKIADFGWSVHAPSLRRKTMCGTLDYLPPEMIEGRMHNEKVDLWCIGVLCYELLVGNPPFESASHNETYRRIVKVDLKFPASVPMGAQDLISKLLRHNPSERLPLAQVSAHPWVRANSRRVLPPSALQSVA
UniProt Q99873, sequence (whole entry, looked up): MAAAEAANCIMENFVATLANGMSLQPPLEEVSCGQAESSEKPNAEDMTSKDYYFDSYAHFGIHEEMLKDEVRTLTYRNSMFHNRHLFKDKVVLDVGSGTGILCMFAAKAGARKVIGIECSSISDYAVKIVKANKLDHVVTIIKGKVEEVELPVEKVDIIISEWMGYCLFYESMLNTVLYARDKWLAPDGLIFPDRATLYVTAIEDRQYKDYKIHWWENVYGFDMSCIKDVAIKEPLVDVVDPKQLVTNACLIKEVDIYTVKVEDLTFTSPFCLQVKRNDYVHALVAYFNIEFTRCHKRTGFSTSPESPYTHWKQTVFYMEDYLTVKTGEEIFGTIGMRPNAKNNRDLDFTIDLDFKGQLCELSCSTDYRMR
UniProt P15207, sequence (whole entry, looked up): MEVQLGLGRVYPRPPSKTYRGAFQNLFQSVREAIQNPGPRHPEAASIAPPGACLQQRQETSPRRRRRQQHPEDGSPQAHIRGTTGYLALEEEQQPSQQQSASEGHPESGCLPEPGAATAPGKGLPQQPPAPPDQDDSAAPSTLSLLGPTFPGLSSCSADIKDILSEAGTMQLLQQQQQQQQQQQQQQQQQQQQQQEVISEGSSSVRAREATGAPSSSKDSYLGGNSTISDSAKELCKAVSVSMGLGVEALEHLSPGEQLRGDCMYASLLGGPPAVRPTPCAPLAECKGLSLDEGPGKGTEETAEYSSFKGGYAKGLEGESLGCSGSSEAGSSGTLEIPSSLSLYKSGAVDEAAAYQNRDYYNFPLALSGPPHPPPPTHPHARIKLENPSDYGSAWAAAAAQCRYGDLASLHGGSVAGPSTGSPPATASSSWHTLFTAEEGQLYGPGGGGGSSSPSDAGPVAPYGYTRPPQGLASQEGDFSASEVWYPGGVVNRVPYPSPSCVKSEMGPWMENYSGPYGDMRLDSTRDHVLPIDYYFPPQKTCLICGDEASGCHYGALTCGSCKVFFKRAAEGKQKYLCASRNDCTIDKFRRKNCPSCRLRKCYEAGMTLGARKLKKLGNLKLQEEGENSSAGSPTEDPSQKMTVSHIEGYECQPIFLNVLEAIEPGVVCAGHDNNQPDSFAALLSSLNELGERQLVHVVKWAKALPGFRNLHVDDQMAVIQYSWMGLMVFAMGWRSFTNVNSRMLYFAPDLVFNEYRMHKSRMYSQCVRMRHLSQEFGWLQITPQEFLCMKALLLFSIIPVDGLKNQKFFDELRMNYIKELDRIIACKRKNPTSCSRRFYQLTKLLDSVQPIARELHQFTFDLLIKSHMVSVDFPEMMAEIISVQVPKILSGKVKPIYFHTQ
UniProt P23443, sequence (whole entry, looked up): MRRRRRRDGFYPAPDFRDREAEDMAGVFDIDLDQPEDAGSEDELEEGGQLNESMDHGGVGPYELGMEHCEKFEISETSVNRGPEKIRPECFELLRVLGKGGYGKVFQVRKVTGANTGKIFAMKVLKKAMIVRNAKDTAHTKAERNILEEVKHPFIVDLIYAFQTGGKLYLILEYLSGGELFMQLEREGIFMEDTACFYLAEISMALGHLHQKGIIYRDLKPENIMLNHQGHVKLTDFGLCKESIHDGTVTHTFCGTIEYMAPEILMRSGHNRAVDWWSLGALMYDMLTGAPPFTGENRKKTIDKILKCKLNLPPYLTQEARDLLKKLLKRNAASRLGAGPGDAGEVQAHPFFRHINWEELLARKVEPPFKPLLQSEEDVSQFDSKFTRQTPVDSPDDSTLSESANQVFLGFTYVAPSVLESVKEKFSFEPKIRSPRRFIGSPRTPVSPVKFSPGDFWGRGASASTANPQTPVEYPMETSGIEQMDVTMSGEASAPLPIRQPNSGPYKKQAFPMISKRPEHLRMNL
UniProt Q5JUK3, sequence (whole entry, looked up): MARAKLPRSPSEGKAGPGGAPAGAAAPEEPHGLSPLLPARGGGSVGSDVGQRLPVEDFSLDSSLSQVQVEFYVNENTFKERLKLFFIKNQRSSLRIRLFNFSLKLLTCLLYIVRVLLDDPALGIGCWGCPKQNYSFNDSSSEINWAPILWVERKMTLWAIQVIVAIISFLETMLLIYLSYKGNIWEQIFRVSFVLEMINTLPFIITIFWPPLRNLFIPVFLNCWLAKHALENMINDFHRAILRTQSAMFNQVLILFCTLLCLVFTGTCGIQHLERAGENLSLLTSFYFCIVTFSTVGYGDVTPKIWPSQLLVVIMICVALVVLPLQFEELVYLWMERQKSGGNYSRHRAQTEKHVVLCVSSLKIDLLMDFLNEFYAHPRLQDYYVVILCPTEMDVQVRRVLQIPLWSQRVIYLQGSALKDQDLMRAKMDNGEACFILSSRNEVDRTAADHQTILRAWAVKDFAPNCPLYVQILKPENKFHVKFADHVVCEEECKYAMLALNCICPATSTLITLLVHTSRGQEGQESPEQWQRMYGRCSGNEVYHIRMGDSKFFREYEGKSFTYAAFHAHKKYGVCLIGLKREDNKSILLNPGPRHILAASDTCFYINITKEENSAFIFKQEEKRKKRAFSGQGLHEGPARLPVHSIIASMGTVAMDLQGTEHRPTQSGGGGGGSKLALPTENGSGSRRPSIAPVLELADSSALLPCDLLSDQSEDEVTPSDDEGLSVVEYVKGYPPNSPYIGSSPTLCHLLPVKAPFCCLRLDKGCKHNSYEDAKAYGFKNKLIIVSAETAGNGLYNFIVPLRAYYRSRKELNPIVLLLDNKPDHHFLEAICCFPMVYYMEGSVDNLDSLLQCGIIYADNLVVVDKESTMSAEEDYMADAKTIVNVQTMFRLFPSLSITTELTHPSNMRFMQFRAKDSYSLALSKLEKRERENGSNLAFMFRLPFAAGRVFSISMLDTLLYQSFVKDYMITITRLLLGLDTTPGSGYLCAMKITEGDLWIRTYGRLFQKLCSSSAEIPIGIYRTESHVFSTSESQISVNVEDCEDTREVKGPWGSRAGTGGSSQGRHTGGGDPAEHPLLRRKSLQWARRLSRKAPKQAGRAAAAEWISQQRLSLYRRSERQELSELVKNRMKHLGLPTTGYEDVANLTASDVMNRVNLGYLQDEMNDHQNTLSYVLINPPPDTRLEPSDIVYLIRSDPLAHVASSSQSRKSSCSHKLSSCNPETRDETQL
UniProt Q9UBF8, sequence (whole entry, looked up): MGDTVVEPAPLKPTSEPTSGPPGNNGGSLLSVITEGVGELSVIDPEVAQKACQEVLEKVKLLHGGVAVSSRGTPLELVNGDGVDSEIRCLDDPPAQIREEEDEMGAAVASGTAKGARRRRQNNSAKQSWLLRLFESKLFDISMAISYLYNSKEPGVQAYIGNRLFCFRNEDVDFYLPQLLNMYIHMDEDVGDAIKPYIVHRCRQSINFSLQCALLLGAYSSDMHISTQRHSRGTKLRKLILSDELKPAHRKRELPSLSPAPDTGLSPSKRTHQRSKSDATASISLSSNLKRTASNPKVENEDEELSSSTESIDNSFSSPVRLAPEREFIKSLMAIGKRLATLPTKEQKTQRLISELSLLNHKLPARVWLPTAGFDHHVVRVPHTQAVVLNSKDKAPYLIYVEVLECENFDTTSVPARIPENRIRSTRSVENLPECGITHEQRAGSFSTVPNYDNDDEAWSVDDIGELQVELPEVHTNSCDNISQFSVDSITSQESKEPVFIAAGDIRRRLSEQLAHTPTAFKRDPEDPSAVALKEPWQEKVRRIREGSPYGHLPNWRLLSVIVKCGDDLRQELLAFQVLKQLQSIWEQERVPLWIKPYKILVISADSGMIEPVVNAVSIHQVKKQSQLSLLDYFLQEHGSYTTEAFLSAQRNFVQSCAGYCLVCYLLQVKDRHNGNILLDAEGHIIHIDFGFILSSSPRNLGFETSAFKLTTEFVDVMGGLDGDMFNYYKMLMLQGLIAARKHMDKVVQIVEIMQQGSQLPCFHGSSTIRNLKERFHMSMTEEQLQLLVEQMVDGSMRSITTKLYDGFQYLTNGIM

| SMILES | target or system | test | system | conditions | scale | measurement | value |
| --- | --- | --- | --- | --- | --- | --- | --- |
| CN(C)[C@H]1C[C@@]23CC[C@@]4(O2)C(=CC[C@]2(C)[C@@H](c5ccc6ccncc6c5)CC[C@H]24)C=C3[C@@H](O)[C@@H]1O | PI4KB (Homo sapiens, UniProt Q9UBF8) | ATP probe labelling, inhibitor, KiNativ profiling |  | 1 µM |  | inhibition | 0.2% |
| O=P(Nc1cccc(F)c1)(Oc1ccc(Cl)cc1)Oc1ccc(Cl)cc1 | KCNT1 (Homo sapiens, UniProt Q5JUK3) | ion current, inhibitor, patch clamp | HEK293 | 10 µM |  | inhibition | > 40% |
| N#Cc1ccc(N2N=C3c4ccc(C(=O)O)cc4CCC3C2C2CCCC2)cc1Cl (stereo not shown) | PRMT1 (Homo sapiens, UniProt Q99873) | enzyme activity, inhibitor |  | 10 µM |  | inhibition | 4% |
| COc1ccccc1-c1n[nH]c2nc(N[C@H]3CC[C@H](NS(=O)(=O)CC(C)C)CC3)ncc12 |  | bead binding, competition bead pull-down, refers to: LINJ.26.0840 | Leishmania donovani extract | 10 µM | relative to: vehicle | relative abundance | 1.14 |
| CCCCCCCCCC(=O)CC(=O)Nc1ccccc1O | lasR | reporter gene, antagonist | Pseudomonas aeruginosa PAO-JP2 | 100 µM, plasI-LVAgfp reporter, together with: OdDHL 150 nM |  | inhibition | 6% |
| CN[C@@H]1[C@H](O)[C@H](NC)[C@H]2O[C@]3(O)[C@H](O[C@@H]2[C@H]1O)O[C@H](C)C[C@H]3NC(=O)Cc1ccc(Cl)cn1 | Androgen receptor (Ar, Rattus norvegicus, UniProt P15207) | ligand displacement, radioligand |  | 10 µM |  | inhibition | 10% |
| N[C@H](C(=O)N1CCCC1)C1CCN(c2nccc3c(-c4ncc(Cl)cc4Cl)cccc23)CC1 | PADI2 (Homo sapiens, UniProt Q9Y2J8) | enzyme activity, GDH-coupled |  | 24 µM, together with: 0.25 mM Ca2+ (low) |  | inhibition | 99.9% |
| CCCCCCCCCCCCn1nnc(CC(=O)O)n1 | lasR | reporter gene, antagonist | Pseudomonas aeruginosa PAO-JP2 | 100 µM, plasI-LVAgfp reporter, together with: OdDHL 150 nM |  | inhibition | 53% |
| O=C(O)/C(S)=C/c1c[nH]c2ccc(F)cc12 | Ribosomal processing cysteine protease Prp (prp, Staphylococcus aureus, UniProt Q2FXS9, N63Q) | enzyme activity, inhibitor |  | 10 µM, prp 21.4 nM, together with: FITC peptide substrate 0.5 µM |  | inhibition | 0.6 ± 19.2% |
| CCCCCCCCCC(=O)CC(=O)Nc1cccc(OC)c1 | lasR | reporter gene, antagonist | Pseudomonas aeruginosa PAO-JP2 | 100 µM, plasI-LVAgfp reporter, together with: OdDHL 150 nM |  | inhibition | 42% |
| CC(=O)NC[C@@H]1[C@@H](O)C[C@H]2[C@H](O)C[C@@H](CO)N12 | β-N-acetylglucosaminidase | enzyme activity, inhibitor, colorimetric | Canavalia ensiformis | 2.14 nM, together with: p-nitrophenyl GlcNAc substrate |  | inhibition | 20.3% and 14.7% |
| CC[C@H](C)[C@H](NC(=O)[C@H](CO)NC(=O)[C@H](Cc1ccc(O)cc1)NC(=O)[C@H](Cc1ccc(O)cc1)NC(=O)[C@H](CC(N)=O)NC(=O)CNC(=O)[C@H](CO)NC(=O)[C@H](Cc1ccc(O)cc1)NC(=O)[C@H](CO)NC(=O)[C@H](CO)NC(=O)[C@H](CC(N)=O)NC(=O)COCCOCCNC(=O)CN1CCN(CC(=O)O)CCN(CC(=O)O)CCN(CC(=O)O)CC1)C(=O)N[C@@H](CC(C)C)C(N)=O [copper-64 labelled] |  | dynamic PET | tamoxifen-induced PDAC mouse model, pancreas | 1.1 min, CLDN4-expressing tumours |  | maximum pancreas uptake | 25.6 %IA/cc |
| CN1CCCN(C(=O)c2ccc(S(=O)(=O)F)cc2)c2ccccc21 | Uncharacterized hydrolase SAUSA300_2518 (Staphylococcus aureus, UniProt Q2FDS6) | enzyme activity, inhibitor |  | 50 µM |  | inhibition | 38.1% |
| CS(C)(=O)=Nc1ccc(-c2ccc(-c3nc4cc(O[C@@H]5CO[C@H]6[C@@H]5OC[C@H]6O)[nH]c4cc3F)cc2)cc1 | RPS6KB1 (Homo sapiens, UniProt P23443) | enzyme activity, inhibitor |  | 10 µM |  | inhibition | 18% |
| O=C(O)CCn1c(=O)oc2cc(Cl)c(Cl)cc21 | KYAT1 (Homo sapiens, UniProt Q16773) | enzyme activity, inhibitor |  | 100 µM |  | inhibition | 24.5% |
| O=C(CN1CN(c2ccccc2)C2(CCN(C(=O)c3cnc4[nH]ncc4c3)CC2)C1=O)NCC(F)(F)F | STK4 (Homo sapiens, UniProt Q13043) | inhibitor |  | concentration not given |  | inhibition | < 50% |
| CC(C)[C@H]1NC(=O)C[C@H]2/C=C/CCSSC[C@@H](NC1=O)C(=O)N[C@H](Cc1cccc3ccccc13)C(=O)NCC(=O)O2 | Aurora kinase B (AURKB, Homo sapiens, UniProt Q96GD4) | enzyme activity, inhibitor |  | 10 µM |  | inhibition | -4.8% |
| COc1ccccc1-c1n[nH]c2nc(NC3CCN(C(=O)Cc4ccc(F)cc4F)CC3)ncc12 |  | bead binding, competition bead pull-down, refers to: LINJ.36.2140 | Leishmania donovani axenic amastigote extract | 10 µM | relative to: vehicle | relative abundance | 0.99 |
| Cc1cc(C(=O)Nc2nc3cccc(C)c3n2[C@H]2CCCCN(C(=O)/C=C/CN(C)C)C2)ccn1 | Trypanosoma brucei | cell growth, Alamar Blue | 2T1 overexpressing Tb927.7.6310 |  | relative to: parental 2T1 | EC50 fold shift | 0.71 fold and 0.79 fold |
| O=C1NC(=O)c2c1c1cc(F)c[n+]3c1c1c2c2cc(O)ccc2[n]1[Ru-4]312([N]=C=S)[S+]3CC[S+]1CC[S+]2CC3 (stereo not shown) | EPHA4 (Homo sapiens, UniProt P54764) | enzyme activity |  | 100 nM, human enzyme, together with: 10 µM ATP | relative to: untreated | remaining activity | 113% |
| Cc1cc(Oc2nc(N3CC[C@@H](c4ccncc4)C3)ncc2F)[nH]n1 | PBMC | cell proliferation |  |  |  | IC50 | > 100 µM |
| CC(C)(C)C(=O)OCOP(=O)(OCOC(=O)C(C)(C)C)C1CCCN(O)C1=O (stereo not shown) | LOX IMVI | cell growth |  |  |  | TGI | 12.3 µM |
| CN(/N=C/c1ccccc1C(=O)O)c1nc(-c2ccccc2Cl)cs1 | MAP4K1 (Homo sapiens, UniProt Q92918) | enzyme activity, inhibitor |  | 1 µM |  | inhibition | -10.3% |
| O=C1NC2(CC2)COc2ncc(F)cc2[C@H]2COCCN2c2ccn3ncc1c3n2 |  |  | Sprague-Dawley rat, female, liver | oral, 10 mg/kg/day, 4 weeks dosing, end of recovery |  | organ-to-brain weight ratio | 450 ± 66.4% |
| C[C@H](NCc1ccc(-c2ccc(C(F)(F)F)cc2)cc1)C(N)=O | Na+/K+-ATPase, pig heart | enzyme activity | biochemical | 1 µM, together with: ATP 100 µM |  | inhibition | -9% |

Excerpt of the above:
| SMILES | target or system | test | system | conditions | scale | measurement | value |
| --- | --- | --- | --- | --- | --- | --- | --- |
| CN1CCCN(C(=O)c2ccc(S(=O)(=O)F)cc2)c2ccccc21 | Uncharacterized hydrolase SAUSA300_2518 (Staphylococcus aureus, UniProt Q2FDS6) | enzyme activity, inhibitor |  | 50 µM |  | inhibition | 38.1% |
| CS(C)(=O)=Nc1ccc(-c2ccc(-c3nc4cc(O[C@@H]5CO[C@H]6[C@@H]5OC[C@H]6O)[nH]c4cc3F)cc2)cc1 | RPS6KB1 (Homo sapiens, UniProt P23443) | enzyme activity, inhibitor |  | 10 µM |  | inhibition | 18% |
| O=C(O)CCn1c(=O)oc2cc(Cl)c(Cl)cc21 | KYAT1 (Homo sapiens, UniProt Q16773) | enzyme activity, inhibitor |  | 100 µM |  | inhibition | 24.5% |
